Published values gathered from unrelated publications.
A part holds a random share of what one study measured. Values joined by “and” are separate records of one study, mostly repeats; a detail may differ.
Sequence of UniProt P18089 (whole entry, looked up): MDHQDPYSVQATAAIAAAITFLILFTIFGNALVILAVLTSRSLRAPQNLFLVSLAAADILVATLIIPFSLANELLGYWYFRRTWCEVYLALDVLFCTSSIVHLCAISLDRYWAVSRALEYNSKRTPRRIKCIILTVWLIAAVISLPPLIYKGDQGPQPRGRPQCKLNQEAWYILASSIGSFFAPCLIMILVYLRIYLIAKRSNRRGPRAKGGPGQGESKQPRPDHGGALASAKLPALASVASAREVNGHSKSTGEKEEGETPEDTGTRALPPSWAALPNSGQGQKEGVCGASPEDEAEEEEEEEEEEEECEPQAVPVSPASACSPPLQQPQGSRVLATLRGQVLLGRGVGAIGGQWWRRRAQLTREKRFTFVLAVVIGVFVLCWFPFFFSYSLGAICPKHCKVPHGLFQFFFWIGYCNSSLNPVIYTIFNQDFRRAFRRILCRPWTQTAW

Study 1
Cell line: mouse MPNST tumor cells
Technique: high-content immunofluorescence imaging
Item: nuclear SOX9
Concentration: 10 µM
Time: 12 h
Notes: mean of 2 replicates
Reference: DMSO control
Reading: higher = more nuclear SOX9
`CC(=O)S[C@@H]1CC2=CC(=O)CC[C@]2(C)[C@H]2CC[C@@]3(C)[C@@H](CC[C@@]34CCC(=O)O4)[C@H]12` — result for “nuclear SOX9 intensity”: 112 % of DMSO and 102 % of DMSO and 99.1 % of DMSO.
`CN1CCC(=C2c3ccccc3CC(=O)c3sccc32)CC1` — result for “nuclear SOX9 intensity”: 134 % of DMSO.
`O=S(=O)(NC1CCCCC1)c1ccc2c(c1)C(=NO)c1cc(S(=O)(=O)NC3CCCCC3)ccc1-2`: “nuclear SOX9 intensity” 89.5 % of DMSO.
`Nc1nc(NC2CC2)c2ncn([C@H]3C=C[C@@H](CO)C3)c2n1`: “nuclear SOX9 intensity” 108 % of DMSO and 115 % of DMSO and 119 % of DMSO.
Under “nuclear SOX9 intensity”, `CC(C)(C)CC(C)(C)c1ccc(OCOCCOCCO)c(Cc2cc(C(C)(C)CC(C)(C)C)cc(Cc3cc(C(C)(C)CC(C)(C)C)ccc3OCOCCOCCO)c2OCOCCOCCO)c1` is recorded as 106 % of DMSO.
`O=C(O)COc1ccc(/C=C2\SC(=O)NC2=O)cc1` — result for “nuclear SOX9 intensity”: 96.3 % of DMSO.
`Cc1cc(=O)n(C)c2cc(N3C(=O)CC[C@@H](NS(=O)(=O)CC(C)C)[C@@H]3c3ccc(Cl)cc3)ccc12` — result for “nuclear SOX9 intensity”: 111 % of DMSO.
For `NC(=O)N1c2ccccc2C=Cc2ccccc21`, “nuclear SOX9 intensity” read 89.6 % of DMSO and 99.9 % of DMSO.
`CN(C)Cc1cccc(N=C(c2ccccc2)c2c(O)[nH]c3cc(C(=O)N(C)C)ccc23)c1`: “nuclear SOX9 intensity” 114 % of DMSO.

Study 2
SMILES: COc1ccc(-c2c(Nc3ccccn3)[nH]c3c(C4=CCCCC4)c(-c4ccccc4)nn3c2=O)cc1
Species: human patients
Matrix: plasma
For item: S-adenosylmethionine; 100 mg once daily, 4 h: “geometric mean concentration” read 18.3 ng/mL.
item: S-adenosylmethionine; 100 mg once daily, 0 h — “geometric mean concentration”: 18 ng/mL.
For item: methionine; 150 mg once daily, 8 h: “geometric mean concentration” read 116000 ng/mL.
The “geometric mean concentration” was 85000 ng/mL (item: methionine; 100 mg once daily, 4 h).
The “geometric mean concentration” was 19.9 ng/mL (item: S-adenosylmethionine; 150 mg once daily, 2 h).
item: methionine; 150 mg once daily, 2 h — “geometric mean concentration”: 126000 ng/mL.
For item: S-adenosylmethionine; 200 mg once daily, 4 h: “geometric mean concentration” read 13.4 ng/mL.

Mixed results
`COCCc1ccc(-c2c(C)nc3c(N4CCOCC4)ccnn23)cn1` gave a Ki of over 10 µM (ADRA2B (Homo sapiens, UniProt P18089); binding, radioligand binding).
Under “log k' (60)”, `CCOC(=O)[C@@H]1CSCC(=O)N[C@@H](CC)C(=O)N(CC(C)C)CC(=O)N[C@@H](CC(C)C)C(=O)N(C)[C@H](C)C(=O)N(C)[C@@H](C)C(=O)N[C@H](CC(C)C)C(=O)N(C)[C@H](C)C(=O)N[C@@H](CC(C)C)C(=O)N1C` is recorded as 0.634 (PRP-column chromatography).
